Measurements collected from several papers.
Every numbered part comes from another study and shows a few of its results, in no order. Substitutions count along the parent as printed.

Set 1
Target: CREB3, bZIP domain (human)
Technique: DHFR protein complementation
Sample: yeast
Setting: single substitutions, most at no-binding floor
Reference: wild-type JUN-FOS pair
Direction: higher = stronger binding
Endpoint: binding fitness
Starting sequence: JUN, bZIP domain (human); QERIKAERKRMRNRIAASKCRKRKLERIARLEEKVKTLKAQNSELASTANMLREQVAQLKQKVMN; partner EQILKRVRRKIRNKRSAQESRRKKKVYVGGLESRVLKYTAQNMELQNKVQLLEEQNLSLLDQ
R30N: -1.48 natural log
S47C: -1.49 natural log
T48L: -1.39 natural log
R53S: -1.38 natural log
L38N: -1.44 natural log
A29G: -1.51 natural log
A57R: -1.23 natural log
A49N: -1.5 natural log
T48M: -1.27 natural log
A46G: -1.44 natural log
K36A: -1.38 natural log
S43L: -1.4 natural log
L52G: -1.5 natural log
I28L: -1.53 natural log
S43D: -1.37 natural log
A57Q: -1.33 natural log
S47F: -1.42 natural log
E54Q: -1.4 natural log
T37M: -1.47 natural log
S43V: -1.43 natural log
V35A: -1.49 natural log
L59T: -1.58 natural log
K34P: -1.53 natural log
N42P: -1.51 natural log
A46H: -1.5 natural log

Set 2
Organism: Saccharomyces cerevisiae
Read-out: binding
Technique: yeast competitive growth sequencing
Molecule type: peptide
Strain: cyclin D1-Cln2 strain
Sample: peptide tiling library
Setting: pooled screen
Direction: direction not given
Endpoint: enrichment score
IVLICAKRSLCAAFSV: -2.06
PARRRLRLSVDEVSSP: -0.653
VLVRTSACRSLFGPVD: -0.201
SMTDFYHSKRRLIFSK: -0.85
PKRAKRKLYTSEISSP: -0.966
PAKRRLELGE: 0.393
SSEVARHLLFQSHM: -0.312
KPKPVKPVTFSTGIKM: 2.54

Set 3
Target: Histone acetyltransferase KAT6A, winged helix 1, GST fusion (KAT6A, Homo sapiens, UniProt Q92794, residues 1-85)
Technique: protein binding microarray
Molecule type: double-stranded DNA, one strand shown
Sample: in vitro
Concentration: not given
Setting: 8-mer, flanks averaged, mean of 2 arrays, mostly near background
Reference: not given
Direction: higher = stronger binding
Endpoint: E-score
Residues (chain): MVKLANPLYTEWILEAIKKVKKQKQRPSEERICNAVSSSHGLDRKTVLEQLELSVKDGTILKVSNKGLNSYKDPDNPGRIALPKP
GGGCCTCA: 0.0779
CCATTTCC: -0.028
AGGCATGC: -0.0131
GTAGATTA: 0.0909
ATTGGATC: -0.0904
ATTTTGGC: 0.0124
CCCGAACA: -0.0694
CAGTCACA: -0.287
TACCGAAA: -0.0285
CTCACTCC: -0.106
CAGCTGAG: -0.191
ATCCCCCA: -0.203
CGAGAATA: -0.13
TCCAGGAA: -0.0954
TAAGGGCA: -0.172
CCAGGATA: -0.116
AAGCGGCC: 0.338
CTCAAACC: 0.0234
TCAGCAAA: -0.21

Set 4
Target: RNA binding protein fox-1 homolog 2, RRM domain, GST-SBP tag (RBFOX2, Homo sapiens, UniProt O43251-10, residues 100-194)
Technique: RNA Bind-n-Seq
Molecule type: RNA
Sample: in vitro
Concentration: 365 nM
Setting: natural RNA segment, single round, ends assumed
Reference: no-protein control
Direction: higher = stronger binding
Endpoint: RBNS enrichment (R)
Constant ends, left off below: GGGAGUUCUACAGUCCGACGAUC … UGGAAUUCUCGGGUGCCAA
Residues (chain): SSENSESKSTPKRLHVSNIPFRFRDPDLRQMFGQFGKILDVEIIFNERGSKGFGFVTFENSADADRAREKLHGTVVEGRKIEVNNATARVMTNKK
AACCCAAGACCGCAGACUGGGUGUAAGGGAUGCCCGGAACACCCUGACCAGGCCCCUCCCCUAAGACUUCUUGGAUAUUUCCCAGGAGAAUCCCACAUUCACCGCCAAAC: 0.494
UUUUUGUACUGUAACUACCUCAUGGUUUGAAUGAUGAGCGUACUGCUGGUUGUAUUAACAGAGCACAUUUGUCGGGUGAGUCGUGUAUACAAACUUUUUUUUUUUAUCCU: 0.77
GAGUGGUUGGAGAGACUUGCGAAGGCGGCUGGGGUGUUCGGAUUUCCAAUAAAGAAACAGAGUGAUGCUCCUGUGUCUGACCGGGUUUGUGAGACAUUGAGGCUGUCUUG: 0.754
AGCUACGUCCCCCUUAGAAGGAUCACUGCAGCAGGUCACCGAGCAGGAGUCCCUCUGAGCGUCCCUUCUGUCUCGUUCUGCCCUAGCUGGCAGCAUAUGAACCAGGCAUG: 0.221
GUCUGCAUUUGAUGUAAUGCCUUAAUUACUGGGGCCACAUUCACGUUGACUGUCUCAGAGACUGUAAGCUCCCGGAGAGCAGGGUUGCUGUAAUGGGAAUGUUUAAGUGU: 1.49
AUUUUAUGGACAUUUUUUGGGCAUUUAAGCCAUCAGGCCUAUUGCAAGAGUGCCUCCUGUAGCAGUUUUAACCAAAUUUCAUUCCCCUGGUACCGUGGAGCUUUAUUUUG: 0.471
ACAGUCAAGGACUACGUUAAAGGUCUCUGGAGAGAGUAUAAAGAGAUUAUUUUUCAUCGUUUUUAAAAGGUUUUGUUUUAAUUUGCACACCUGUGCACAAGGGAAAUAAC: 1.37
CAUUGUUUGAUUUCUUGUGACUAUUCUAAGAAUGAAUGCAAUCAGAUUUUAAAAGUAACUAAAUAUACUUCAGCACUUUUUUGCUUUAAACUAGAUCAUCUUAGACUUGU: 0.44
GAACGGUACAGCCCCGGCCUGACCCGGGGACCUUCAGCCUGGACACCCGGCAGCUUCUGGAGUUUGUCAGUGGAGGCAGAGGGGAUCCGGCCAGGCCCCUCUGUCCAGAA: 0.257
AGGAUCCCAGCCCUAGAGCUGCAGGGCUGCCCUGUGGGACAGCGCAGCCUAAGCUGAUUUGGAUCUGGGUUUCUCCUCCAGGUAGGGUUGUUUUGUUUCCUUCGCCCUUU: 0.278
CAAGCUAGCCCCUUAUCCAGCCAACACUGCACCUAACCCCAGGGAUUUGCUACCAGAGCAAACUCAGUUCUGCCUGUCCCUGAAGUAUGACCAGGAGACAGCCAGUUUCA: 0.631
AAUAGCAUUGUUGGAAUUUAUUCCCUUCUGUUUUAAAGGAGGUAUUUUGGAAAUUGAAAAACUUAAUUUACAAGUGCUGGUACAUCUUUUUUCUUUUGUGGACCACAGGA: 0.518

Repeated from above (set 3):
TCCAGGAA: -0.0954
ATTGGATC: -0.0904
ATCCCCCA: -0.203
CAGTCACA: -0.287
CTCACTCC: -0.106
CCATTTCC: -0.028
CGAGAATA: -0.13
TAAGGGCA: -0.172
TCAGCAAA: -0.21
AGGCATGC: -0.0131
AAGCGGCC: 0.338
